Measurements gathered from unrelated publications.
Parts stem from different laboratories: compare values within a part only.
Sequence of UniProt Q13976 (whole entry, looked up): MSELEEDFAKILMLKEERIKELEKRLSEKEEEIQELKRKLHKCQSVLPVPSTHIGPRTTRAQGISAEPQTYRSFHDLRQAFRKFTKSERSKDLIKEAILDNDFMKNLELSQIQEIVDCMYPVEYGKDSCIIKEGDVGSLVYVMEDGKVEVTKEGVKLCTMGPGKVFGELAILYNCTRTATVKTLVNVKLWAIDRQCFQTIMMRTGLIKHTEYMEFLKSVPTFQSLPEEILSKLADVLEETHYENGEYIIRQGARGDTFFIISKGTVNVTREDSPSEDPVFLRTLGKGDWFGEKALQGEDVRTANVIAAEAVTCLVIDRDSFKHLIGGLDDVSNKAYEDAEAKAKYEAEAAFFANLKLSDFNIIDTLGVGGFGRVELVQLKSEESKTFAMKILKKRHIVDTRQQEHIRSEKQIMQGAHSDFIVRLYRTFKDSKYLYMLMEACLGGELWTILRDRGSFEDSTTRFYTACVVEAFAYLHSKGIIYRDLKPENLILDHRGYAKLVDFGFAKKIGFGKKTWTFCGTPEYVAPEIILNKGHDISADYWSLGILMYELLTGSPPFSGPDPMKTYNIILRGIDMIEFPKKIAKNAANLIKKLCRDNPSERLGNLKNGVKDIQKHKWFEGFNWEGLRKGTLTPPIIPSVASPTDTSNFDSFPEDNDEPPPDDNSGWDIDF
Sequence of UniProt Q13557 (whole entry, looked up): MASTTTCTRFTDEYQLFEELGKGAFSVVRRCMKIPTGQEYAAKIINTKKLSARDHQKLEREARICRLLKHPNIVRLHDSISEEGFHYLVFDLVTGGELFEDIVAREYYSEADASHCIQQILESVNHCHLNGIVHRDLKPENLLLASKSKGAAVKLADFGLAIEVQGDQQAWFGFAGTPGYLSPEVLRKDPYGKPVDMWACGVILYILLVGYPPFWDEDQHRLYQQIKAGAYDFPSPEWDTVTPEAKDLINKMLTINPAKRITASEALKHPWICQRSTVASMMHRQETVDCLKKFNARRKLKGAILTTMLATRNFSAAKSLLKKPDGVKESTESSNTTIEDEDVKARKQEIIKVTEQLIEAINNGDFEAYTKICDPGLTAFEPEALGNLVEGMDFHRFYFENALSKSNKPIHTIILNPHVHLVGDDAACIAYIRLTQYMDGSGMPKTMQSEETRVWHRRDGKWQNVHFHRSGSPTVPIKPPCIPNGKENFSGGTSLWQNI
Sequence of UniProt P35626 (whole entry, looked up): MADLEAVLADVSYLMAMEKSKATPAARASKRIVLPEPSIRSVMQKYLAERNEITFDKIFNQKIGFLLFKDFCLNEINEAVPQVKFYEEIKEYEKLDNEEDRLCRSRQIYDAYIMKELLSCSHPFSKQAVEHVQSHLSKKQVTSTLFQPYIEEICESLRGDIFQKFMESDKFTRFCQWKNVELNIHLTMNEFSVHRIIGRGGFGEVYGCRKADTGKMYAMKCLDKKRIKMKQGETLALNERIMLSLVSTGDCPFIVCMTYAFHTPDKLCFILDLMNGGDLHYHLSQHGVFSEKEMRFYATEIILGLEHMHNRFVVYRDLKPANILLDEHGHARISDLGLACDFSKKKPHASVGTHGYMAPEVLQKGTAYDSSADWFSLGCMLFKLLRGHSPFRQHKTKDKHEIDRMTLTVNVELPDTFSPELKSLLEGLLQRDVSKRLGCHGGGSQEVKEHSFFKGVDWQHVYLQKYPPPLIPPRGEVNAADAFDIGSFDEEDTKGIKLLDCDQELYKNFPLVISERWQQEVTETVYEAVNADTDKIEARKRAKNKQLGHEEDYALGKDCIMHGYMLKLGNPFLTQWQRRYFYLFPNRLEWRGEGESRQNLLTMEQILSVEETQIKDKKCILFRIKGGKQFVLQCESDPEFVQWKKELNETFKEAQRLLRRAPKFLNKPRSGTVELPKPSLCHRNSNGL
Sequence of UniProt Q9UIK4 (whole entry, looked up): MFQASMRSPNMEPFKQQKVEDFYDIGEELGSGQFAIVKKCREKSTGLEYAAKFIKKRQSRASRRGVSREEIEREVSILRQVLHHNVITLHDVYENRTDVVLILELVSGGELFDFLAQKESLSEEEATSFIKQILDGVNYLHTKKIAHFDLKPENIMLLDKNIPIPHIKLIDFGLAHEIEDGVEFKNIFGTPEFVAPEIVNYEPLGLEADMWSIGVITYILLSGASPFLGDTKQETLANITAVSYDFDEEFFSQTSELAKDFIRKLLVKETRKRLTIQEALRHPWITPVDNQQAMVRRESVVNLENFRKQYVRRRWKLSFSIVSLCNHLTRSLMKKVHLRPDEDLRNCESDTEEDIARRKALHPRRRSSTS
Sequence of UniProt P37173 (whole entry, looked up): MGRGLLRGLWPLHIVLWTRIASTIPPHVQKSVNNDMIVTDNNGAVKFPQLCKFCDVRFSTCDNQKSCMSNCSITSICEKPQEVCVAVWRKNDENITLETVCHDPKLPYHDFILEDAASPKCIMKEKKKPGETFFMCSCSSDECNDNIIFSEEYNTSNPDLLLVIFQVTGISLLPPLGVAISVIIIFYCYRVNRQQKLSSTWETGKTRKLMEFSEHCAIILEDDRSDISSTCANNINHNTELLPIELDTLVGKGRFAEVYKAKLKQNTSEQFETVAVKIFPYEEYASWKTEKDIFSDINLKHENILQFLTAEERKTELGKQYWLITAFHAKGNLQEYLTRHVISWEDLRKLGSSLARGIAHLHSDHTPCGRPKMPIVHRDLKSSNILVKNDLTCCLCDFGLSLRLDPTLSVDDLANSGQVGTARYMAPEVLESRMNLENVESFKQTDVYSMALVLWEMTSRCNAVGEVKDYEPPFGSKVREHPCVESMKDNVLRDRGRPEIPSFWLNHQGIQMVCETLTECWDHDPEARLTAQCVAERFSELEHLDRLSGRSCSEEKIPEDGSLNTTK

Study 1
Target: Translocator protein (Tspo, Rattus norvegicus, UniProt P16257)
Sequence of UniProt P16257 (whole entry, looked up): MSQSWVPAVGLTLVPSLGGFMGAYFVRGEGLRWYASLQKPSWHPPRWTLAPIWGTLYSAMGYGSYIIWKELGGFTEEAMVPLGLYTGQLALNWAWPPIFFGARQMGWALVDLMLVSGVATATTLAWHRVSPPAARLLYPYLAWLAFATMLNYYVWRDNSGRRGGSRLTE
Read-out: radioligand binding
Technique: radioligand displacement
Concentration: 10 µM
Endpoint: inhibition
CCS(=O)(=O)c1cc2cc(C[C@](O)(CC(C)(C)c3ccc(F)cc3C(N)=O)C(F)(F)F)[nH]c2cn1: -21.4%
Cc1nc(Cc2cccc(C(F)(F)F)c2)sc1-c1ccc(C(N)=O)nc1: 4.9%
O=C(O)[C@@H]1[C@@H](Cn2nnc3ccccc3c2=O)CC[C@H]1C(=O)c1ccc(OCCC2CCOCC2)cc1: 13.4%
CNCc1ccccc1-c1csc([C@H](C)Nc2nc(C)nc3cc(OC)c(OC)cc23)c1: -11.4%

Study 2
Target: Sal-like protein 4, full length isoform A (SALL4, Homo sapiens, UniProt Q9UJQ4, residues 1-1053)
Sequence of UniProt Q9UJQ4 (whole entry, looked up): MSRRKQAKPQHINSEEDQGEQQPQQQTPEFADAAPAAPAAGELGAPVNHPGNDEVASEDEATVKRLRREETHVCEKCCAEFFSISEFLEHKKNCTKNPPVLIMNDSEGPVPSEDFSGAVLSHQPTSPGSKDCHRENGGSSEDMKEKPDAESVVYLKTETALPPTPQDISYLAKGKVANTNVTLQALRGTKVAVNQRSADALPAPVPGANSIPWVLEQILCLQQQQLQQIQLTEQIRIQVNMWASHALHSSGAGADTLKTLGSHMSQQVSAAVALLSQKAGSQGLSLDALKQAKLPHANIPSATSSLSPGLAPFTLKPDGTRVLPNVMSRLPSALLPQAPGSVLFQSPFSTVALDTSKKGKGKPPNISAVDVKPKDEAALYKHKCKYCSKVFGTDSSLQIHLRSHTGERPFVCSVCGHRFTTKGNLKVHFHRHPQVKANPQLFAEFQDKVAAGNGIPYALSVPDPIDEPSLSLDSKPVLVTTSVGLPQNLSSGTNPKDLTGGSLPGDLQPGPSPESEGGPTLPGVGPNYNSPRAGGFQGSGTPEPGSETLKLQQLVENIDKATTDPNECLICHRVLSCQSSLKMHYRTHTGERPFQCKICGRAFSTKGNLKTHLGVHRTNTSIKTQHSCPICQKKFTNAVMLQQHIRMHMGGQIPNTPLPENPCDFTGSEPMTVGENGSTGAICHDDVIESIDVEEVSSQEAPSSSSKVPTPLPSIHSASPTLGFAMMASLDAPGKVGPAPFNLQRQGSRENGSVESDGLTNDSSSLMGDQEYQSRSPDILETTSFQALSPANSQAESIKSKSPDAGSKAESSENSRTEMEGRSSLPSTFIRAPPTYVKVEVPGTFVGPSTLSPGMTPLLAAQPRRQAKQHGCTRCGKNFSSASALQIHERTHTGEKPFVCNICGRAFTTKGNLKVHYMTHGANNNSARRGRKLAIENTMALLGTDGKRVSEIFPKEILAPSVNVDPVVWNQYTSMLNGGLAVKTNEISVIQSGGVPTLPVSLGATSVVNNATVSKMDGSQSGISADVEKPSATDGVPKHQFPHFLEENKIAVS
Technique: universal PBM
Form: double-stranded DNA, one strand shown
Matrix: in vitro
Concentration: 600 nM
Setting: 8-mer, flanks averaged, mean of replicates
Reading: higher = stronger binding
Endpoint: E-score
AGCAGAAA: 0.195
TACCGGAA: -0.0384
GTGGTAAA: 0.0573
GATTTGCA: 0.123
GGATTCAA: 0.0316
ACCTCATA: 0.119
AGGTTACT: -0.0383
GACGGCTA: -0.161

Study 3
SMILES: Cc1cc(Nc2cc(N3CCN(C)CC3)nc(Sc3ccc(NC(=O)C4CC4)cc3)n2)[nH]n1
Read-out: enzyme activity
Mode: inhibitor
Concentration: 0.5 µM
Baseline: control
Endpoint: remaining activity
PRKCA (Homo sapiens, UniProt P17252): 82%
TGFBR2 (Homo sapiens, UniProt P37173): 102%
GRK3 (Homo sapiens, UniProt P35626): 96.1%
DAPK1 (Homo sapiens, UniProt P53355): 102%
PRKACA (Homo sapiens, UniProt P17612): 98.1%
DAPK2 (Homo sapiens, UniProt Q9UIK4): 98.2%
OXSR1 (Homo sapiens, UniProt O95747): 99.5%
CAMK2D (Homo sapiens, UniProt Q13557): 87.1%
Tyrosine-protein kinase Lyn, isoform B (LYN, Homo sapiens, UniProt P07948): 63.1%
NEK2 (Homo sapiens, UniProt P51955): 105%
cGMP-dependent protein kinase 1, isoform beta (PRKG1, Homo sapiens, UniProt Q13976): 87.6%

Other studies, line by line
Target: SMN1, full length (human, UniProt Q16637, residues 1-294)
Sequence of UniProt Q16637 (whole entry, looked up): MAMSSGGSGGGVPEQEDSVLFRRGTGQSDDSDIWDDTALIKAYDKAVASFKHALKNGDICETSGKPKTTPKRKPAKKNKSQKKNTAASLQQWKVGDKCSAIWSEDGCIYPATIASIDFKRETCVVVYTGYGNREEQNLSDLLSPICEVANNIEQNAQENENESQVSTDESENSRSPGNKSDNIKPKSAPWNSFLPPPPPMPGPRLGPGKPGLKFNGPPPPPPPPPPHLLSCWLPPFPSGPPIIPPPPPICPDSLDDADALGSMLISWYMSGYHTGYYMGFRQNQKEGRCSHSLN
Technique: nitrocellulose filter binding
Form: RNA
Matrix: in vitro
Concentration: 100 nM
Setting: whole RNA, constant flanks, single concentration, ends assumed
Baseline: round 9 selected pool
Reading: higher = stronger binding
GGGCUCACCACGCACUUGCCAAGAACUUGCCUUGGCCCGCCCUCACCACGGCAAGCU — relative RNA binding: 4.8 % of pool
GGGCUCACCACGCACUGUUGCGUAGAAAUUCGUUGGCUUGACCUCACCACGGCAAGCU — relative RNA binding: 14 % of pool

Repeated from above (study 3):
NEK2 (Homo sapiens, UniProt P51955): 105%
cGMP-dependent protein kinase 1, isoform beta (PRKG1, Homo sapiens, UniProt Q13976): 87.6%
